# Published values of several laboratories.
# A part holds a random share of what one study measured.

# Set 1
# Target: Histone acetyltransferase KAT6A, winged helix 1, GST fusion (KAT6A, Homo sapiens, UniProt Q92794, residues 1-85)
# Method: protein binding microarray
# Molecule type: double-stranded DNA, one strand shown
# Medium: in vitro
# Tested at: not given
# Setting: 8-mer, flanks averaged, mean of 2 arrays, mostly near background
# Reference: not given
# Direction: higher = stronger binding
# Construct (chain): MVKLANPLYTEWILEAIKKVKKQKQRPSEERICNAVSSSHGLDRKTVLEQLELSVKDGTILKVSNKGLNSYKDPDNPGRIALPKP
Oligonucleotide,E-score
ACGCAGCC,0.128
AGACGAGC,-0.023
TAGGCCCA,-0.137
CTCTCTCA,-0.274
ATCTATGA,-0.151
CTCTATCA,-0.0368
GGTGGCTA,0.0342
CCTACGTC,-0.141

# Set 2
# Target: Interferon regulatory factor 5, full length, phosphomimetic (IRF5, Homo sapiens, UniProt Q13568-2, residues 1-514, K96S/S451D/S453D/S456D/S462D)
# Method: protein-binding microarray
# Molecule type: double-stranded DNA, one strand shown
# Medium: in vitro
# Tested at: 250 nM
# Setting: 60-bp whole probe
# Added: salmon DNA 0.4 mg/ml
# Reference: random background probes
# Direction: higher = stronger binding
# Shared flanks, not repeated: GCCTAGCAC … GTCTTGATTCGCTTGACGCTGCTG
Oligonucleotide,log fluorescence [z-score]
CCAGACTGCAGAGCAAGATCGTGCTAG,-0.455
TTAGGTTTCGAATTTCGGTTAGTGCTA,8.12
GACGGTATCGTTATCCTGACGTGCTAG,2.03
GACGGTATCCTTAGCCTGACGTGCTAG,-0.22
CAAGTTTTTATTTTCTGAATGTGCTAG,1.76
TTAGAACTGAGACTGGCTTAGTGCTAG,-0.317
TCATGTGTAGGTCTTAAACTGTGCTAG,-0.502
GACGATATCGGTCTCGGGACGTGCTAG,3.56

# Set 3
# Target: Centromere-binding protein 1, full length, N-terminal tag (CBF1, Saccharomyces cerevisiae, UniProt P17106, residues 1-351)
# Chain of UniProt P17106 (whole entry, looked up): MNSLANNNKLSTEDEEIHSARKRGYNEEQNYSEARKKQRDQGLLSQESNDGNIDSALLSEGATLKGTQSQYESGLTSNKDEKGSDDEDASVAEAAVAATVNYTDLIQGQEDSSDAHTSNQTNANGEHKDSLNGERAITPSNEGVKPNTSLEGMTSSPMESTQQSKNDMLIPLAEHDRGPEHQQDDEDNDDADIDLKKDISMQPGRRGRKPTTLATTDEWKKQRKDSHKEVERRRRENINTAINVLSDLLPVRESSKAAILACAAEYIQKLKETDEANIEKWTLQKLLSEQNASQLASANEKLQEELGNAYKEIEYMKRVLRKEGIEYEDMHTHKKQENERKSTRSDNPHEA
# Method: protein-binding microarray
# Molecule type: double-stranded DNA, one strand shown
# Medium: in vitro
# Tested at: 0.8 µM
# Setting: whole 60-bp probe, no competitor
# Direction: higher = stronger binding
Oligonucleotide,fluorescence intensity [a.u.]
CTATTTTGTGGTCGGATCGTGCTTTTGCCACCCTTCGTCTTGATTCGCTTGACGCTGCTG,526
CTATTAATTTAATGTCACCATATTATAAAAATATTCGTCTTGATTCGCTTGACGCTGCTG,720
CCTAACTACTATAGTAACATCACATAGCTTCGTACAGTCTTGATTCGCTTGACGCTGCTG,532
CTACAGGGCTCAGAGCGCATCACGATCGGGAGTTTCGTCTTGATTCGCTTGACGCTGCTG,527

# Set 4
# Target: Replicase polyprotein 1ab, polymerase (rep, Severe acute respiratory syndrome coronavirus 2, UniProt P0DTD1)
# Effect on: enzyme activity
# Action: inhibitor
# Tested at: 20 µM
SMILES,inhibition
NC(=O)c1cnccn1,1.51%
CO[C@]12C[C@@H](COC(=O)c3cncc(Br)c3)CN(C)[C@@H]1Cc1cn(C)c3cccc2c13,29.4%
CCOCOC[C@H](C[C@H](C)C(=O)NO)NC(=O)c1ccc(Oc2ccccc2)cc1,-6.98%
N#Cc1c(N)nc(SCc2csc(-c3ccc(Cl)cc3)n2)c(C#N)c1-c1ccc(OCCO)cc1,-1.65%
COc1cc(C(=O)NC2CCCNC2)cc(OC)c1OC (centres unmarked),-0.5%
O=C(N[C@@H](Cc1c[nH]c2ccccc12)C(=O)O)c1ccc(Cl)cc1,0.09%
Nc1cc(C(F)(F)F)c(-c2nc(N3CCOCC3)nc(N3CCOCC3)n2)cn1,0.17%
N[C@@H](Cn1ccc(=O)c(O)c1)C(=O)O,-1.27%
CCOC(=O)c1c(/C(C#N)=C\N)c2ccc(Cl)c(Cl)c2n1C,-0.65%
CCC(=O)Nc1cccc(Oc2nc(Nc3ccc(N4CCN(C)CC4)cc3OC)ncc2Cl)c1,2.85%
CO/N=C(\C(=O)N[C@@H]1C(=O)N2C(C(=O)O)=C(Cn3ccc(=N)n3CCO)CS[C@H]12)c1csc(N)n1,0.89%
CO/N=C(\C(=O)N[C@@H]1C(=O)N2C(C(=O)O)=C(COC(N)=O)CS[C@H]12)c1ccco1,0.63%
O=C(O)c1ccc(NC2O[C@H](CO)[C@@H](O)[C@H](O)[C@@H]2O)cc1 (stereo in doubt),1.41%
CN(CCOc1ccc(NS(C)(=O)=O)cc1)CCc1ccc(NS(C)(=O)=O)cc1,1.09%
COc1ccc(NC(=O)c2ccc(-c3ccc(-c4noc(C)n4)cc3C)cc2)cc1N1CCN(C)CC1,1.69%
COc1ccccc1N1CCN(CCCCN2C(=O)CCC2=O)CC1,3.57%
Cc1o[nH]c(=O)c1C[C@H](N)C(=O)O,-3.27%
CCC1(C)CC(=O)NC1=O (centres unmarked),-6.8%
C[C@H](CCC(=O)O)[C@H]1CC[C@H]2[C@@H]3CC[C@@H]4C[C@H](O)CC[C@]4(C)[C@H]3CC[C@]12C,21.8%
COC(=O)c1ccc(N2CCN(C)CC2)c(NC(=O)c2cccc(OC)c2)c1,-3%
N[C@@H](C(=O)O)c1ccc(O)c(C(=O)O)c1,-3.84%
Cc1ccsc1/C=C/C1=NCCCN1C,-0.05%
C[C@H](Cc1ccc(O)c(O)c1)[C@@H](C)Cc1ccc(O)c(O)c1,3.38%
C/C(=C\C(=O)Nc1ccccc1C(=O)O)c1ccc2ccccc2c1,36%
COc1cc([C@@H]2c3cc4c(cc3[C@@H](O[C@@H]3O[C@@H]5CO[C@@H](C)O[C@H]5[C@H](O)[C@H]3O)[C@H]3COC(=O)[C@H]23)OCO4)cc(OC)c1O,-4.37%

# Further values, each from its own experiment
Compound,tested on,assay,system,conditions,scale,quantity,value
COC(=O)/C=C/C(=O)OC,HEK-293T,"pseudovirus infection, FDA-approved drug library screen",VSV pseudotyped with SARS-CoV-2 spike,"10 µM, 16 h",reference: vehicle-treated,GFP-positive cells,108%
C[n+]1c2cc(N)ccc2cc2ccc(N)cc21.Nc1ccc2cc3ccc(N)cc3nc2c1,"Replicase polyprotein 1ab, 3C-like proteinase (rep, Middle East respiratory syndrome-related coronavirus, UniProt K9N7C7)","enzyme activity, inhibitor",MERS-CoV,10 µM,,inhibition,50%
CC(=O)OC(C)OC(=O)C(C)c1ccc(-c2ccccc2)c(F)c1 (centres unmarked),HEK-293T-ACE2,,,concentration not given,reference: vehicle,cell number,102%
COC(=O)/C=C/c1cc(O)ccc1O,SARS-CoV-2,cytopathic effect,Vero E6,10 µM,,inhibition,-8.3%
CN(C)/N=N/c1[nH]cnc1C(N)=O,HEK-293T,pseudovirus infection,VSV pseudotyped with SARS-CoV-2 spike,"10 µM, 16 h",reference: vehicle-treated,GFP-positive cells,81.7%

# Repeated from above (set 4):
SMILES,inhibition
Cc1o[nH]c(=O)c1C[C@H](N)C(=O)O,-3.27%
CCC1(C)CC(=O)NC1=O (centres unmarked),-6.8%
C[C@H](CCC(=O)O)[C@H]1CC[C@H]2[C@@H]3CC[C@@H]4C[C@H](O)CC[C@]4(C)[C@H]3CC[C@]12C,21.8%
COC(=O)c1ccc(N2CCN(C)CC2)c(NC(=O)c2cccc(OC)c2)c1,-3%
N[C@@H](C(=O)O)c1ccc(O)c(C(=O)O)c1,-3.84%
